Results pooled from the literature.
Numbered parts are unrelated; each lists some results of a single study. Positions count from the first letter of the parent shown.

Sample 1 — method: RNA Bind-n-Seq; molecule type: RNA; medium: in vitro; tested at: not given; baseline: input RNA pool; reading: higher = stronger binding
Target: RING finger protein unkempt homolog, zinc fingers 1-6, GST-SBP tag (UNK, Homo sapiens, UniProt Q9C0B0, residues 30-357)
Chain of UniProt Q9C0B0 (30-357, looked up): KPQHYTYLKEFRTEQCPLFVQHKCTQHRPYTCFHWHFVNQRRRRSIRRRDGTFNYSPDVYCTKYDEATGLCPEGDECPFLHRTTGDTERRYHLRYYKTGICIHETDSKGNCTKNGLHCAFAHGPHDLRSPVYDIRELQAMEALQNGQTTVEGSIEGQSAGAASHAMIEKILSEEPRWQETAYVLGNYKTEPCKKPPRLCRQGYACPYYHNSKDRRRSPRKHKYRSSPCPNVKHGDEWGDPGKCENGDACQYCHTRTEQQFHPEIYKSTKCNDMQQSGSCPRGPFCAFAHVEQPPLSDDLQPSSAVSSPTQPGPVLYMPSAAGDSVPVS
Notes: RNA with constant flanks, human-mouse chimeric sites, ends assumed
Strand | bound/input enrichment [ratio]
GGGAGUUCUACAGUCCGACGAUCAGAGAUAAGACAUCCAGAAAUAUGAGAGGCUCCCGGAUGAAUGGGUUUCCAAGUCCCACUCACAGCGCCCACUGUAGCUUCUACCGAACCAGAACCUUGCAGGCACUGAGUAAUGAGAAGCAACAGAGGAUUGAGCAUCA | 0.172
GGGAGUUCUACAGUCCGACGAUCGCUCUUGGGAAUGUAAUCAGCGCCUUGGGAGACAAGAGCAAGAGGGCCACCCAUGUCCCUUACAGAGACUCUAAGCUGACAAGACUCUUGCAGGAUUCCCUUGGGGGUAACAGCCAAACCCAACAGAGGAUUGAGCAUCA | 0.113
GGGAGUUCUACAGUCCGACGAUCAGAUAUUUUGAAGAAAAAAAAAACUCGAACAGAUUUGACAAGGGUAGCCAGCUUGGAGUCUAGCAACUUGCCAAUGUGUUUACCAAUCUGGGGGCUUGUUUUUCUUUUCUUCUUUCAAAUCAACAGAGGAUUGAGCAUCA | 0.451
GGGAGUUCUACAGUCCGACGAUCAACAGAUUGUCUUUAAGCAUUCCAAGCGAGAAUGCUGAAAUAGUCAUUGUUGCCCAUGUGCCUUCUGACUGAGCUUUAAUGCUGUUCCAUGUUACAUCUUUCCUUCACUCCAGAAUUGUUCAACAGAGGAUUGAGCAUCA | 0.286
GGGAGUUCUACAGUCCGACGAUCUUGCCUGAGAACGAGGAUGAGCUGGAGAGCACCAACAGGCGCUACACCAAGAGGGACUGCAGCACUUUUCUCAGAACUAGUGAGACGGGCAUCGUGGACCAGGUCAUGGUCACUCUCAACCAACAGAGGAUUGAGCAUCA | 0.12
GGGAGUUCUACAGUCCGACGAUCCUGAAAAACACAGAUAUCAAAGUUGUUGACUUUGGAAGUGCAACGUAUGAUGAUGAACAUCACAGUACUUUGGUGUCUACCCGGCACUACAGGGCUCCAGAGGUCAUUUUGGCUUUAGGUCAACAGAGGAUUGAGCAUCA | 0.288
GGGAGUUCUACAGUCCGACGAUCAUCAAGUAUUUUGGGGACAUCAUUAGUGUGGGACAGAGACUGUUGCAAGGAGCUCGGAUCUUAGGGAUUCCAGUUAUCAUAACGGAACAAUACCCCAAAGGACUUGGCAGCACCGUUCAACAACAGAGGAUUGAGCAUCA | 0.193
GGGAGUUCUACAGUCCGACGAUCAAAGCCCUUGAAGAAAAAAAAAACUCGAACAGAUUUAACAAGGGUAGCCAGCUUGGAGUCUAGCAACUUGCCAAUGUGUUUACCAAUCUGGGGGCUUGUUUUUCUUUUCUUCUUUCAAAUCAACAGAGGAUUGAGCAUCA | 0.366
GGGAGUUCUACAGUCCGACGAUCAUGGAGAAGGAUUCUCUGCCCCGCUUUGUGCGCUCUGAAUUUUAUAAGGAGCUAAUCAAGUAGUAAUCUGGUCAGGCUUCCAAAAGUUGCCCUGUGAUAUUUCCUCCAUCCUUUGUAGCACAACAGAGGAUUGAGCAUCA | 0.27
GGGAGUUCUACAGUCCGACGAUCCAGGGCAUCAUCUCUCGAGCUGUUAAACACCUGUUCAAGAGUAUUGAUGAGAAAAAGCACAUAGCAAUUAAAAACGGGCUGCCCCCUCCUGAAUUCAAAGUGAAUGCCCAGUUCCUAGAGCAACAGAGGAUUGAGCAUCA | 1.15
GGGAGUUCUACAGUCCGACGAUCGCAAGAGAUGAUGAGGCGGCAGCUGUUGCCCUUUCCUCUCUCGUUCAUGCUUUGGAUGAGUUAAACAUGGUCGCCAUCGUCCGAUAUGCUUAUGACAAAAGAUCUAAUCCUCAAGUCGGUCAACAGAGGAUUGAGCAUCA | 0.246

Sample 2 — method: aptamer microarray, sandwich; molecule type: DNA with 2'F-ANA; medium: in vitro; tested at: 200 nM; with: Cy3 exosite-II aptamer, 400 nM; reading: higher = stronger binding; strand: GGTTGGTGTGGTTGG
Target: Prothrombin, mature alpha-thrombin (F2, Homo sapiens, UniProt P00734)
Notes: whole 15-mer aptamer, many near background
Modification | mean fluorescence intensity [a.u.]
2'F-ANA at 3 6 13 14 15 | 527
2'F-ANA at 1 9 13 15 | 147
2'F-ANA at 1 2 4 5 6 7 11 13 | 54.5
2'F-ANA at 1 4 6 8 | 143
2'F-ANA at 2 8 10 11 12 13 15 | 127
2'F-ANA at 4 7 8 | 557
2'F-ANA at 7 10 12 13 14 | 120
2'F-ANA at 1 2 9 10 11 | 56.7
2'F-ANA at 2 3 4 5 9 10 11 12 14 15 | 49.3
2'F-ANA at 1 6 8 10 11 12 13 14 | 92.2
2'F-ANA at 2 3 4 5 9 10 13 15 | 60.1
2'F-ANA at 1 4 6 7 8 9 11 15 | 98.2
2'F-ANA at 3 5 6 7 8 9 10 11 14 | 50.3
2'F-ANA at 1 2 6 7 9 10 12 | 63
2'F-ANA at 2 5 6 7 8 9 11 13 14 | 45.9
2'F-ANA at 1 3 6 7 8 10 13 | 79.5
2'F-ANA at 2 3 6 7 8 9 10 11 12 | 355
2'F-ANA at 1 3 8 11 12 14 | 145
2'F-ANA at 1 4 8 9 11 12 14 15 | 56.2
2'F-ANA at 1 2 3 4 5 8 9 12 13 14 | 49

Sample 3 — method: RNA Bind-n-Seq; molecule type: RNA; medium: in vitro; tested at: 365 nM; baseline: no-protein control; reading: higher = stronger binding
Target: RNA binding protein fox-1 homolog 2, RRM domain, GST-SBP tag (RBFOX2, Homo sapiens, UniProt O43251-10, residues 100-194)
Notes: natural RNA segment, single round, ends assumed
Construct (chain): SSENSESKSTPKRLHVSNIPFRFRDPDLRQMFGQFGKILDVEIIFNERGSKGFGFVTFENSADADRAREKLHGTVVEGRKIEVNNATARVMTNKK
Strand | RBNS enrichment (R)
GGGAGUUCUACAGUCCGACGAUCGUGAUUUGCCUUUGAACUUGGUCCUAUUGAAGUUCACAAUAAGUGGAAAACAAUUUUUUCAGAGAAUGUAUUUUUGUGCAGAAUUGCACAGAAUUCUAGAGACAGCGUUGUGGAAUUCUCGGGUGCCAA | 0.333
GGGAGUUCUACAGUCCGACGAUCGCUCUCCCUAGUCCUAGUGUGUGCACAUGCAGUUCUUUCCUGCCUUCGACCUUUAACAACAUUUUCUGUCUAUGCAAAGAAAGCUGCAGGCCUCAUUCAGUUCUGCAGACUGGAAUUCUCGGGUGCCAA | 0.38
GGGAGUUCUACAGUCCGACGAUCAGACACUGCCUCCCUGGAGCCCAUGCAUGCCCAGCUGUUCUUACUGCUUAGUAGCCUUGAAGCAGCACAUCUCCACUGUCCCUGGCAGGAUUGUGGGAGGCUUCACAACCUGGAAUUCUCGGGUGCCAA | 5.07
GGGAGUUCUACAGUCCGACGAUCCCCGGGAACCCCUUCCACCAUAGAGACAACCCCUCGCUAGACGUGAACUCAGAACUGUCGGAGGAAAGACAACACAACCAACGCGAAACCAAUUCCUCAUCCUCAGAUGCUGGAAUUCUCGGGUGCCAA | 0.353
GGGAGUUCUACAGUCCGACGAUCCAGGUGGCUGGGGACACUGCAUAUUCCCUGCUGGUGGCUCGGCUCACCUGUUCUGCCUCCCUUGGCCACUUUGCUUCAGCUCAAAGGCACAGCUCAGUUUAAAAGCCAAAUGGAAUUCUCGGGUGCCAA | 0.537
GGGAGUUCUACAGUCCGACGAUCCACUAGAUUGCCUGUCCCGACUCAUUGAAGUGCUCCCCAGGGAGCCACUUCUGAUUUGCCAUGGUUGACAGCAUAGUGGAAGAUAGAUAUGACAGCGCUUUGUAAAGCAGUGGAAUUCUCGGGUGCCAA | 0.261
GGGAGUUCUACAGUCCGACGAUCCCUCACAGCCCGACACGCCCUGCUGAGGCAGACGAAUGACAUUAAGUUCUGAAGCAGAGUGGAGAUAGAUUAGUGACUAGAUUUCCAAAAAGAAGGAAAAAAAAGGCUGCUGGAAUUCUCGGGUGCCAA | 3.27
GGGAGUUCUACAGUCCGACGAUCGGCCAUAUAGUAAUGGAAAGCUGCAAUAAUUAGUUUUAAUACAGCUUGAAUAUUUGCUAUAUAGAAAUAUAGUAUGGAAAGUUUUUGGUCUUAAUGUAGCUACUGUGCGGUGGAAUUCUCGGGUGCCAA | 0.679
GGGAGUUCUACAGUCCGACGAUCAAUGCAGAUUGGAUUCUUUGAUGUUCAAAUUUCUCAUUUACUUAUGAAAAUCCCUAAUUAUAUAGUUUUAUAUAAUGUGUAUACAGAGUAGGAUUGUUGAUGAAAUUGAGUGGAAUUCUCGGGUGCCAA | 0.377
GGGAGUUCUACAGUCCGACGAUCAUCUGGAAUCUGAGGCAUCCUCUGACUCCACUCAAAGAGGGUGAGGGCCUUCUUAAGAUACAAAUGGUGGAGGAUUGCUGCCAGAGAAGUCUGGUCAGAGCCACAGGGUCUGGAAUUCUCGGGUGCCAA | 0.342
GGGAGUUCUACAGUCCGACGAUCCAGCAGUCCCAGUAUUCUCAGAGCAUGUGUCAGAGUGUUGUUCCGUUAACCUUUUUGUAAAUACUGCUUGACCGUACUCUCACAUGUGGCAAAAUAUGGUUUGGUUUUUCUGGAAUUCUCGGGUGCCAA | 9.57
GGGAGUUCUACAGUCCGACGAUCCCGAGUCUUCUUAGAUGACUGAGCACUGCUUGAUGUUGUGUUUUGAAUAAUUUAAUCUGUACAAUAAAUACAGUAUAGGCUGAUCAAGGAGCAUUUUGUAAGCUGCCCUCUGGAAUUCUCGGGUGCCAA | 0.453

Sample 4 — target: CCNE1, cyclin fold, Cln2 fusion (human); method: yeast growth competition, sequencing; medium: yeast; notes: strong parent motif; baseline: not given; reading: higher = stronger binding
Starting sequence: CDC25A docking peptide (human); PPHRRRLLFACSP
Substitution | normalised enrichment score
P1D | 1.16
C11R | 0.465
F9V | 0.617
P2Q | 1.53
R5C | 0.684
R6N | 0.975
P1A | 1.08
R6H | 0.671
P13W | 0.327
R6F | 0.281
L8C | 1.36
H3A | 2.06
R5V | 1.38
A10D | 4.17
A10P | 1.54

Sample 5 — method: protein-binding microarray; molecule type: double-stranded DNA, one strand shown; medium: in vitro; tested at: 250 nM; notes: 60-bp whole probe; with: salmon DNA 0.4 mg/ml; baseline: random background probes; reading: higher = stronger binding; constant ends, left off below: GCCTAGCAC … GTCTTGATTCGCTTGACGCTGCTG
Target: Interferon regulatory factor 7, full length, phosphomimetic (IRF7, Homo sapiens, UniProt Q92985, residues 1-503, S101K/S471D/S472D/S475D/S476D/S477D/S483D/S484D/S487D)
Chain of UniProt Q92985 (whole entry, unmodified, looked up): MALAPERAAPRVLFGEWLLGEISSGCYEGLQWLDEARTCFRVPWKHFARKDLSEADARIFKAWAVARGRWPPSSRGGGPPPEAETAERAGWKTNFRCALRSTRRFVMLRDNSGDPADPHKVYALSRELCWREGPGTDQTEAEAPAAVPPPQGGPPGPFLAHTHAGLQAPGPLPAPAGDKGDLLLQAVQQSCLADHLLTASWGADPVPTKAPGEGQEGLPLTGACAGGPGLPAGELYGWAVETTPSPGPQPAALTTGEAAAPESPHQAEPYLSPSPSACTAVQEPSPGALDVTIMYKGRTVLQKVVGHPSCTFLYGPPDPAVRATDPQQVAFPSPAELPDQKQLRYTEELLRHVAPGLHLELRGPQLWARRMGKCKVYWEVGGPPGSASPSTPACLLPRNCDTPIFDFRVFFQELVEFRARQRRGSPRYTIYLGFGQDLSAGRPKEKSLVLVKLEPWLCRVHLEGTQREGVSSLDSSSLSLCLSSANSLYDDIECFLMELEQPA
Strand | log fluorescence
TCAGGACTGGGTTTCGGTTAGTGCTAG | 6.62 z-score
TGTTATTAAAATTTCATGAAGTGCTAG | 0.802 z-score
TGAGGTTTCGACTTTCGGTTAGTGCTA | 11.2 z-score
TTAGGAGTGGGGTTTCGGTTAGTGCTA | 4.75 z-score
TCATGAATGTGTCTTAAACTGTGCTAG | -0.272 z-score
TCATTTTTTTTTTTGTAACTGTGCTAG | 0.911 z-score
AAGCCAGCCAAGGCCACTGTGTGCTAG | -1.02 z-score
GACGGTTGCGGTATCGGGACGTGCTAG | 0.103 z-score
GACGGTCTCGGACTAGGGACGTGCTAG | 0.276 z-score
TTAGGTATCCTACTGCTTTTGTGCTAG | -0.16 z-score
GACGGACTGCTTCTTCTGACGTGCTAG | -0.445 z-score
GTAAGCAAAAATGATTGGTTGTGCTAG | -0.0249 z-score
TTAGATTCCAGTTGCGATTAGTGCTAG | 4.29 z-score
TTAGAACTGGGGACTGCATTAGTGCTA | -0.371 z-score
CAGTTTTCCTCTGTCATTTTGTGCTAG | 2.61 z-score
TTAGGTTTCGTCTATCGGTTAGTGCTA | 4.65 z-score
CTAGGTTTCGACTATCGGTTAGTGCTA | 6.55 z-score
AACGGTTTCGGGACTGGGGACGTGCTA | 4.35 z-score
TCATGCATGTTTTTGACACTGTGCTAG | 0.058 z-score

A few entries again (sample 5):
Strand | log fluorescence
TTAGATTCCAGTTGCGATTAGTGCTAG | 4.29 z-score
GACGGTCTCGGACTAGGGACGTGCTAG | 0.276 z-score
TGTTATTAAAATTTCATGAAGTGCTAG | 0.802 z-score
TGAGGTTTCGACTTTCGGTTAGTGCTA | 11.2 z-score
TCATTTTTTTTTTTGTAACTGTGCTAG | 0.911 z-score
AACGGTTTCGGGACTGGGGACGTGCTA | 4.35 z-score
